Measured values of several laboratories.
Protocols differ between the studies behind these lines.
MTNR1B: Melatonin receptor type 1B (MTNR1B, Homo sapiens, UniProt P49286)
UniProt P49286, sequence (whole entry, looked up): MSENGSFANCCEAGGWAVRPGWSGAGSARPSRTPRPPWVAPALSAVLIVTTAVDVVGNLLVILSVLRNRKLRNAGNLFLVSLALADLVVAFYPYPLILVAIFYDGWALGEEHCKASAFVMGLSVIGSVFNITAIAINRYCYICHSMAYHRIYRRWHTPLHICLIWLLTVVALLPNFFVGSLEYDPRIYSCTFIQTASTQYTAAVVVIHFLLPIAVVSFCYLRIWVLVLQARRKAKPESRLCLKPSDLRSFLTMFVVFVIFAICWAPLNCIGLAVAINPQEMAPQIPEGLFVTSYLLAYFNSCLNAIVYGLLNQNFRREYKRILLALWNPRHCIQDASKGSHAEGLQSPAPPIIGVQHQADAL
CDPK1: Calcium-dependent protein kinase 1 (CDPK1, Plasmodium falciparum, UniProt P62344)
UniProt P62344, sequence (whole entry, looked up): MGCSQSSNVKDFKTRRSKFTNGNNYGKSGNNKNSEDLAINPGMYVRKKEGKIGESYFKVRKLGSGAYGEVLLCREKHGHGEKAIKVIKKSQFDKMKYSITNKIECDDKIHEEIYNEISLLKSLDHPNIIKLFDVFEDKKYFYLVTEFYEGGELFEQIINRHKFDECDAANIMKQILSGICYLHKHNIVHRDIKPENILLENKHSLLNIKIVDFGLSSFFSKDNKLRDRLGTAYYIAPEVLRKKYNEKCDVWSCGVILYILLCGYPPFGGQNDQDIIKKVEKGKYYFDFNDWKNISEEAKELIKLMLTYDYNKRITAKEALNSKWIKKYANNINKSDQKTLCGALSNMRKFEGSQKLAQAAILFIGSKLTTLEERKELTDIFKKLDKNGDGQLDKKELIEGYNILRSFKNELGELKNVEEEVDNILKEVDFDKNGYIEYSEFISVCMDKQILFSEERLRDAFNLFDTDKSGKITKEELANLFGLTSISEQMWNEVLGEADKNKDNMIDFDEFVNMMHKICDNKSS
UniProt P42336, sequence (whole entry, unmodified, looked up): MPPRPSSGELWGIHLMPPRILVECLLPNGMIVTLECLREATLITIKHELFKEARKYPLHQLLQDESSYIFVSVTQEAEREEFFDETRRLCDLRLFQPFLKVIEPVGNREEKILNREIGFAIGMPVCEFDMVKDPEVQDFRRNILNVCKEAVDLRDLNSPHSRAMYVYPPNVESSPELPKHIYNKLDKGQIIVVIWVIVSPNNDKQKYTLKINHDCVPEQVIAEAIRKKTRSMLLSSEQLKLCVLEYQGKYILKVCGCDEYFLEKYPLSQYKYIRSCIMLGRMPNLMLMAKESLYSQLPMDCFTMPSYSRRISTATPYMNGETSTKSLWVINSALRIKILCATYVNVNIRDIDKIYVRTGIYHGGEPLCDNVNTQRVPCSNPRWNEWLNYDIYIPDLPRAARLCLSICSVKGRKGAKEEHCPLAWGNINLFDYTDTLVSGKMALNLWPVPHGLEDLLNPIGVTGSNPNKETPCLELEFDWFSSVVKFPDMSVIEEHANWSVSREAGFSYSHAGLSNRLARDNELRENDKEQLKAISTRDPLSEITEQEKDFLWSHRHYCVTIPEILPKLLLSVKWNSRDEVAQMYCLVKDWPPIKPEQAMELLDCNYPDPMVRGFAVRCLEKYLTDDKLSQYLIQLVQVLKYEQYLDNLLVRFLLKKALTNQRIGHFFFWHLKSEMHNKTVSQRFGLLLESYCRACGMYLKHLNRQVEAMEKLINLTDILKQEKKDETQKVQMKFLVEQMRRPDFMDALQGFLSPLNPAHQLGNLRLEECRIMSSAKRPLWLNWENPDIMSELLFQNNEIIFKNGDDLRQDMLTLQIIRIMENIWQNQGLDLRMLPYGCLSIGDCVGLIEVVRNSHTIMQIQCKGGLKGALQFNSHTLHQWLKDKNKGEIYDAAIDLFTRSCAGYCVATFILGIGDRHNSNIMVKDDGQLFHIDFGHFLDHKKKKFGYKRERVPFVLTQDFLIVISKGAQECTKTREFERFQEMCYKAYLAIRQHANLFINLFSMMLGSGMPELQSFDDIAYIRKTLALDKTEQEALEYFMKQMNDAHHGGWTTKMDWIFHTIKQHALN
UniProt P27361, sequence (whole entry, looked up): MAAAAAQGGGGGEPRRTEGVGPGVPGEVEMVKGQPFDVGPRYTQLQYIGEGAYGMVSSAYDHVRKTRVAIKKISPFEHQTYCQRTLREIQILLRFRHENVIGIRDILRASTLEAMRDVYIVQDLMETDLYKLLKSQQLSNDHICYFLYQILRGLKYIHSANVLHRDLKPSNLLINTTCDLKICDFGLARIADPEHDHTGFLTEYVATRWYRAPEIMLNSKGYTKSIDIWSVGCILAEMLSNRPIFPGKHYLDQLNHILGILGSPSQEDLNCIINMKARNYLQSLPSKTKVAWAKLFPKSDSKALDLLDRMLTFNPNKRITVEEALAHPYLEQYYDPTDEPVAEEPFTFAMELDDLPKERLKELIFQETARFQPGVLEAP
UniProt Q16832, sequence (whole entry, looked up): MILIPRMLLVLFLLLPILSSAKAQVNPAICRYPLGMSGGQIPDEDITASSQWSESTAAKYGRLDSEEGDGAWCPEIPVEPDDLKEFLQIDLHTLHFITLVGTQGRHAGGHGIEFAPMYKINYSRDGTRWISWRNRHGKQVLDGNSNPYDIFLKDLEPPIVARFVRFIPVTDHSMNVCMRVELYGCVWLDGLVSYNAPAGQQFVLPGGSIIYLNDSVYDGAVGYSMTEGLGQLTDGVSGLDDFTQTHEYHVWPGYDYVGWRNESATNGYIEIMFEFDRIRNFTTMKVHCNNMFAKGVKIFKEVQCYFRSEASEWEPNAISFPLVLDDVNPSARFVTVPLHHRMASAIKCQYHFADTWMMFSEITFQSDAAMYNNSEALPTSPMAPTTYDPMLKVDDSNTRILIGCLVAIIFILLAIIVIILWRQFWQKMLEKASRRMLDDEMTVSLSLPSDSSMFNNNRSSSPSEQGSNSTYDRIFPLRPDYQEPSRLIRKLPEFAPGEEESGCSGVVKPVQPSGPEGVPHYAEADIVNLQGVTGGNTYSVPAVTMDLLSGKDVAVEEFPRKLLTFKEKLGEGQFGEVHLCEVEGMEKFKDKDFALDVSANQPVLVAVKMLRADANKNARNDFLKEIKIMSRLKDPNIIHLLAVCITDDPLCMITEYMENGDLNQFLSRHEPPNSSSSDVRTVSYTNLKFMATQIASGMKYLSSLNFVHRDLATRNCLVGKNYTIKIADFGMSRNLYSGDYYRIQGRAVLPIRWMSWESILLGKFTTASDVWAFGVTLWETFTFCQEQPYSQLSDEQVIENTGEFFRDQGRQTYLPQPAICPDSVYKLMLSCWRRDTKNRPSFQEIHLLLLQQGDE
UniProt Q9SZU7, sequence (whole entry, unmodified, looked up): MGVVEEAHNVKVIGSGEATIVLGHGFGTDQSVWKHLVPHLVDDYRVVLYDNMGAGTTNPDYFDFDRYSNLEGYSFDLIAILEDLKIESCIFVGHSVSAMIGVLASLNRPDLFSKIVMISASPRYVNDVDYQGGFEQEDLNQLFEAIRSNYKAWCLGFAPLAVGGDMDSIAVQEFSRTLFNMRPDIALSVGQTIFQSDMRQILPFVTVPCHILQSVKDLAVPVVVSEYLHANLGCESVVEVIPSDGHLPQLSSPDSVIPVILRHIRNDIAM
UniProt P05164, sequence (whole entry, looked up): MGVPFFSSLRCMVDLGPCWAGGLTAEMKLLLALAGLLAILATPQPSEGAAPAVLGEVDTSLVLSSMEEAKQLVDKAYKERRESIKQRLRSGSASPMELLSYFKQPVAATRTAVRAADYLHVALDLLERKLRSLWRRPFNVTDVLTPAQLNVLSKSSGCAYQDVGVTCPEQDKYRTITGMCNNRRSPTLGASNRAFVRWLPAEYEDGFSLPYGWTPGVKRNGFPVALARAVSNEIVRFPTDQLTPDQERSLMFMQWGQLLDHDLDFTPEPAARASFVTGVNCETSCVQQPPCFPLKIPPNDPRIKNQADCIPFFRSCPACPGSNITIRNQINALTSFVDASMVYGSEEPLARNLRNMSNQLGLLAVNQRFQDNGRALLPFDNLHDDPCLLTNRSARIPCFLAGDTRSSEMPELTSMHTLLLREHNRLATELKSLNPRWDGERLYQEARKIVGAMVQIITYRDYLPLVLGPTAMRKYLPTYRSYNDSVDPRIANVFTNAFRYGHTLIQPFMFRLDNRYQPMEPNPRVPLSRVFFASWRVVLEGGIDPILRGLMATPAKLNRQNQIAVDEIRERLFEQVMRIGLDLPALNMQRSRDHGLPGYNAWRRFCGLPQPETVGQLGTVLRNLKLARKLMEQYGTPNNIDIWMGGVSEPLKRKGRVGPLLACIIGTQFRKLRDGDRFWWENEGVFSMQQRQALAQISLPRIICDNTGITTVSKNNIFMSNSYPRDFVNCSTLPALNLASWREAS
UniProt P48039, sequence (whole entry, looked up): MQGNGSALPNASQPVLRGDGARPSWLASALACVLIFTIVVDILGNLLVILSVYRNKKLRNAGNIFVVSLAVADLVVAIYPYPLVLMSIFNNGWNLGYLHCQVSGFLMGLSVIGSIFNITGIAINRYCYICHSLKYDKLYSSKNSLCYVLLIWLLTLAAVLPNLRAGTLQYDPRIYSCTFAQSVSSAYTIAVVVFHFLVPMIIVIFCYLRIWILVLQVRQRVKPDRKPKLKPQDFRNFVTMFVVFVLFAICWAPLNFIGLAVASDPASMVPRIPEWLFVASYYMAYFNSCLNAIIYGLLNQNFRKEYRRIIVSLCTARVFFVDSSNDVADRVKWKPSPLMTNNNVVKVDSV
UniProt Q96PF2, sequence (whole entry, looked up): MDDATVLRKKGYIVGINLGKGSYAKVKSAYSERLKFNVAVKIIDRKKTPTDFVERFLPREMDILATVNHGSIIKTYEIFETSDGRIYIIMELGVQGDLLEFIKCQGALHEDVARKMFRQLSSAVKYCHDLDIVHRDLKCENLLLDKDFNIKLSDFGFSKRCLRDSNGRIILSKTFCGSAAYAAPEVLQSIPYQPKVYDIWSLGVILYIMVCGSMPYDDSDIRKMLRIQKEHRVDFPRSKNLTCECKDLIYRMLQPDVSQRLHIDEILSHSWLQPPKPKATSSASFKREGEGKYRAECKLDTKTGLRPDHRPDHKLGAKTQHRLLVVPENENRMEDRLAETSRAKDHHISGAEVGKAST

With `COc1ccc2cccc(CCNC(C)=O)c2c1` the Emax was 94% (MTNR1B; GTPγS binding, agonist, radiometric; cell membranes).
For `CC[C@H](C)[C@H](NC(=O)[C@H](CCC(N)=O)NC(=O)[C@@H](NC(=O)[C@H](CCSC)NC(=O)[C@H](CCCCN)NC(=O)[C@H](CO)NC(=O)[C@@H](NC(=O)[C@H](CCSC)NC(=O)[C@H](CC(C)C)NC(=O)[C@H](CC(N)=O)NC(=O)[C@@H](NC(=O)[C@@H](NC(=O)[C@H](CO)NC(=O)[C@H](CC(C)C)NC(=O)[C@H](C)NC(=O)[C@H](CCCNC(=N)N)NC(=O)[C@H](CCC(=O)O)NC(=O)[C@H](Cc1ccc(O)cc1)NC(=O)[C@H](Cc1ccccc1)NC(=O)[C@H](C)NC(=O)[C@H](CC(N)=O)NC(=O)[C@@H](N)CCCCN)[C@@H](C)CC)[C@@H](C)CC)[C@@H](C)O)C(C)C)C(=O)N[C@@H](CC(N)=O)C(=O)N[C@H](C(=O)O)C(C)C`, the remaining activity was 85% (Mitogen-activated protein kinase 3 (MAPK3, Homo sapiens, UniProt P27361); enzyme activity, inhibitor, radiometric; 100 µM, 20 min).
`C1=C/COCc2cc(ccc2OCCN2CCCC2)Nc2nccc(n2)-c2cccc(c2)COC/1` gave a remaining binding of 45% (Phosphatidylinositol 4,5-bisphosphate 3-kinase catalytic subunit alpha isoform (PIK3CA, Homo sapiens, UniProt P42336, E545A); binding; 0.1 µM).
The remaining binding of `C=CC(=O)N1CCC(COCC(=O)N2CCN(c3nc(-c4cnc(N)nc4C(F)F)nc(N4CCOC[C@@H]4C)n3)CC2)CC1` is reported as 65% (Serine/threonine-protein kinase Nek11 (NEK11, Homo sapiens, UniProt Q8NG66); binding, competition with immobilised ligand; 1 µM).
The ΔTm of `CC1=CC(O/C=C2/C(=O)OC3c4ccccc4CC23)OC1=O` (racemic) is reported as 0.3 °C (KAI2 (Arabidopsis thaliana, UniProt Q9SZU7); thermal stability, DSF; 100 µM).
The Emax of `CCC(=O)NC1Cc2ccccc2C(c2ccccc2)C1` (stereo not shown) is reported as 68% (Melatonin receptor type 1A (MTNR1A, Homo sapiens, UniProt P48039); β-arrestin recruitment, agonist; CHO-K1; 90 min).
`NC/C(=C\F)COc1cccc(Cn2c(=S)[nH]c(=O)c3[nH]cnc32)c1` has a remaining activity of 109% (Myeloperoxidase (MPO, Homo sapiens, UniProt P05164); enzyme activity, inhibitor; 28 nM).
`CNc1ncc2c(/C=C/C(=O)N3CCC(OC)CC3)nn(Cc3cccc(C(F)(F)F)c3)c2n1` gave a remaining activity of 105% (Testis-specific serine/threonine-protein kinase 2 (TSSK2, Homo sapiens, UniProt Q96PF2); enzyme activity, inhibitor, radiometric; 1 µM).
`Nc1ncnc2occ(-c3ccc(NC(=O)Nc4cc(C(F)(F)F)ccc4F)cc3)c12` has a remaining signal of 44% (Phosphatidylinositol 4,5-bisphosphate 3-kinase catalytic subunit alpha isoform (PIK3CA, Homo sapiens, UniProt P42336, I800L); cell-free assay, inhibitor; 20 µM).
The Emax of `COCC(CNC(C)=O)c1cccc2ccc(OC)cc12` (stereo not shown) is reported as 81% (MTNR1B; β-arrestin recruitment, agonist; MT2; 90 min).
`CCCCC(=O)Nc1ccc(-c2ccc3ncn(CCC)c(=O)c3c2)cn1` has a remaining binding of 100% (Serine/threonine-protein kinase Nek4 (NEK4, Homo sapiens, UniProt P51957); binding, competition with immobilised ligand; 0.5 µM).
For `CCCN(O)N=Nc1ccc(S(=O)(=O)Nc2cc(C)on2)cc1`, the inhibition was 20.2% (DPPH scavenging, absorbance; 120 µg/mL).
`C[C@H]1CCN(c2nccc(-c3cnn4ncccc34)n2)C1` gave a remaining binding of 86% (CDPK1; binding; 1 µM).
With `Cc1cc(NS(=O)(=O)c2ccc(N=NN(O)c3ccccc3)cc2)no1` the inhibition was 30% (DPPH scavenging, absorbance; 120 µg/mL).
`COc1cc(-c2cncc3c2CN(C)Cc2cc(N4CCNCC4)ccc2-3)cc(OC)c1OC` has a remaining activity of 91% (Discoidin domain-containing receptor 2 (DDR2, Homo sapiens, UniProt Q16832); enzyme activity, inhibitor; 1 µM).
`CN1CC(Oc2cnc(C#N)cc2-c2ccn3nc(NC(=O)C4CC4)cc3c2)C1` has an inhibition of 3% (Serine/threonine-protein kinase D1 (PRKD1, Homo sapiens, UniProt Q15139); enzyme activity, inhibitor; 1 µM).
`COc1cc(CNC(=O)N2CCCC2)cc(Br)c1OC` has an inhibition of 2.72% (Replicase polyprotein 1ab, papain-like protease (rep, Porcine epidemic diarrhea virus, UniProt P0C6Y4); enzyme activity, inhibitor, FRET; 10 µM).
With `Cc1cc([C@@H](C)Nc2ccccc2C(=O)O)c2nc(N3CCC(F)(F)CC3)c(C#N)c(=O)n2c1` the remaining binding was 71% (Aurora kinase B (AURKB, Homo sapiens, UniProt Q96GD4); binding, competition with immobilised ligand; 10 µM).
For `CN(C)c1nccc(-c2cnn3ncccc23)n1`, the remaining binding was 100% (CDPK1; binding; 1 µM).
For `COc1cc2c(CCNC(C)=O)c(I)[nH]c2cc1[N+](=O)[O-]`, the Emax was 103% (MTNR1B; GTPγS binding, agonist, radiometric; cell membranes).
With `CC(=NNC(=O)c1cccnc1)c1ccc(Nc2nnc(-c3ccc(Cl)cc3)c3ccccc23)cc1` the viability was 93.6% (HepG2; cell growth or viability, MTT; 0.312 µM, 24 h).
`FC(F)(F)Oc1cccc(-c2cnc3ccc(-c4ccncc4)nn23)c1`: “activity vs control” 29% (Vascular endothelial growth factor receptor 1 (FLT1, Homo sapiens, UniProt P17948); enzyme activity, inhibitor, radiometric; 5 µM).

Some of these lines once more:
`CCCCC(=O)Nc1ccc(-c2ccc3ncn(CCC)c(=O)c3c2)cn1` has a remaining binding of 100% (Serine/threonine-protein kinase Nek4 (NEK4, Homo sapiens, UniProt P51957); binding, competition with immobilised ligand; 0.5 µM).
